Measurements gathered from unrelated publications.
Each numbered part is a random draw from the data of one study; scales do not carry over between parts.

Series 1
Target: Ras GTPase-activating protein-binding protein 1, full length (G3BP1, Homo sapiens, UniProt Q13283)
UniProt Q13283, sequence (whole entry, looked up): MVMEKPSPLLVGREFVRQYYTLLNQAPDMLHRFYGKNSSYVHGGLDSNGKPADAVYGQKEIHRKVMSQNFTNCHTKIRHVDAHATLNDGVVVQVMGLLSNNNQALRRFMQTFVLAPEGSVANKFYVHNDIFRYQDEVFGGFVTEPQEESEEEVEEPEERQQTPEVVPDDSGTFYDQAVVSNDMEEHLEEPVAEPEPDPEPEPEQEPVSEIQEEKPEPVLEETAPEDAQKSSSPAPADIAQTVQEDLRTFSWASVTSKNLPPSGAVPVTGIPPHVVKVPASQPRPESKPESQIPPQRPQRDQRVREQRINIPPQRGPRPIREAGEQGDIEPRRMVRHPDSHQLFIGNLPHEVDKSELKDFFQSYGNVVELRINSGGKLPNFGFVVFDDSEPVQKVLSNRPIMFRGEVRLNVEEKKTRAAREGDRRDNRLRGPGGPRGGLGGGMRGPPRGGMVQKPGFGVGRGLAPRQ
Method: RNA Bind-n-Seq
Molecule type: RNA
Sample: in vitro
Tested at: 200 nM
Setting: whole 134-nt RNA, ends assumed
Together with: 150 mM LiCl
Baseline: input library
Reading: higher = stronger binding
Each molecule: 7-deaza-guanosine replaces G
Constant ends, left off below: GGGAGUUCUACAGUCCGACGAUC … UGGAAUUCUCGGGUGUCAAGG
| Oligonucleotide | log2 enrichment |
| --- | --- |
| ACCAUGCAGGUGGGCAUCUUUGGGAAGUGGGGCAAGGGGGGGAAAGGGAGGGGGGUAACACUUUGGGAACAGGUGGUCCCAGGUCGUUUC | 0.181 |
| AAGUCCUGUGCUACACAUCGUAUGUACCGAAUCGGUUUGGUUUUUGGAAAAAAAGGAAAGUAUUAUGUUACGCCGUUCGGAUCUGCACUU | -1.03 |
| AGUCCUGUGCUACACAUCGUAUGUACCGAAUCGGGUUUUUUUGGGUGGGAAAAAGGGAAAGUAUUAUGUUACGCCGUUCGGAUCUGCACU | -0.798 |
| GUCCUGUGCUACACAUCGUAUGUACCGAAUCGGGAAAAAAGGAAAAAAGGAAAAAAGGAAAGUAUUAUGUUACGCCGUUCGGAUCUGCAC | -0.527 |
| ACCAUGCAGGUGGGCAUCUUUGGGAAGUGGGGCAAGGGGGGGAUAGGGAGGGGGGUAACACUUUGGGAACAGGGGGUCCCAGGUCGUUUC | 0.158 |
| CCUCAAGUCCUGUGCUACACAUCGUAUGUACCGAAUCGGCCGGCCGGGCCGGGAAAGUAUUAUGUUACGCCGUUCGGAUCUGCACUUCCA | 0.66 |
| CCUGUGCUACACAUCGUAUGUACCGAAUCGGGGAAAAAAAGGGGAAAAAGGGGUUUGGGGAAAGUAUUAUGUUACGCCGUUCGGAUCUGC | -0.147 |
| UGGCCCUGGUGGCAUGCGGGGAGGAAGAGGUGGCCUCAUGGAUCGUGGUGGUCCCGGUGGAAUGUUCAGAGCUGGCCGUGGUGGAGACAG | -0.206 |
| AAGUCCUGUGCUACACAUCGUAUGUACCGAAUCGGGUUUGGGUUUUUUUGGGAGGGAAAGUAUUAUGUUACGCCGUUCGGAUCUGCACUU | 0.652 |
| AAAAAAAGUGUGUAUUAGGAGGAGAGAGAGGAAAAAAAGAGGAAAGAAGGAAAAAAAAAAGAAUUAAAAAAAAAAAAAAGAAAAACAGAA | 0.436 |
| AUUUCUCAGUUGAAGGAUGCUUACACUCUUGUCCAUCUAGACCUCAAUUACUGUUUUUCAGGAAUGUCUGAUCACAGAUACGGGGAUGGU | -1.65 |

Series 2
Target: Prothrombin, mature alpha-thrombin (F2, Homo sapiens, UniProt P00734)
Method: aptamer microarray, sandwich
Molecule type: DNA with 2'F-ANA
Sample: in vitro
Tested at: 200 nM
Setting: whole 15-mer aptamer, many near background
Together with: Cy3 exosite-II aptamer, 400 nM
Reading: higher = stronger binding
Oligonucleotide: GGTTGGTGTGGTTGG
| Modification | mean fluorescence intensity [a.u.] |
| --- | --- |
| 2'F-ANA at 2 4 5 8 10 11 14 15 | 53.3 |
| 2'F-ANA at 1 4 5 9 11 | 51.6 |
| 2'F-ANA at 1 4 5 6 7 11 12 13 15 | 61.2 |
| 2'F-ANA at 2 3 4 8 12 13 15 | 658 |
| 2'F-ANA at 1 2 3 4 5 6 7 8 10 11 14 | 50.5 |
| 2'F-ANA at 2 4 5 6 8 10 12 | 55 |
| 2'F-ANA at 3 5 6 10 11 12 | 59.2 |
| 2'F-ANA at 1 4 6 7 8 9 10 11 14 | 48 |
| 2'F-ANA at 3 4 6 7 8 10 12 13 15 | 268 |
| 2'F-ANA at 1 2 4 5 7 9 13 14 | 45.3 |
| 2'F-ANA at 3 6 11 13 | 823 |
| 2'F-ANA at 3 5 8 12 14 15 | 68.9 |
| 2'F-ANA at 1 2 4 8 10 11 15 | 48.5 |
| 2'F-ANA at 3 5 7 9 12 13 15 | 171 |
| 2'F-ANA at 2 3 4 6 7 8 10 11 12 13 | 237 |
| 2'F-ANA at 1 5 6 7 8 9 10 12 13 14 | 45.4 |
| 2'F-ANA at 1 2 3 7 8 10 13 14 15 | 57.6 |
| 2'F-ANA at 2 7 8 9 10 11 12 13 14 15 | 88.3 |
| 2'F-ANA at 1 3 4 5 6 7 10 13 15 | 50.8 |
| 2'F-ANA at 1 2 4 6 8 13 | 85.5 |
| 2'F-ANA at 1 2 6 7 12 13 14 | 97.5 |

Series 3
Target: RNA binding protein fox-1 homolog 2, RRM domain, GST-SBP tag (RBFOX2, Homo sapiens, UniProt O43251-10, residues 100-194)
Method: RNA Bind-n-Seq
Molecule type: RNA
Sample: in vitro
Tested at: 365 nM
Setting: natural RNA segment, single round, ends assumed
Baseline: no-protein control
Reading: higher = stronger binding
Constant ends, left off below: GGGAGUUCUACAGUCCGACGAUC … UGGAAUUCUCGGGUGCCAA
Construct (chain): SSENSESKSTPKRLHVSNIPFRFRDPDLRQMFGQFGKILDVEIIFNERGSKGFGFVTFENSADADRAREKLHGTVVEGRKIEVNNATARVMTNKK
| Oligonucleotide | RBNS enrichment (R) |
| --- | --- |
| UCAGGGUGUGAGUGAGCUCUGCUACUCCCCACCCAGUGCCUGAGGAGCCUGUCAGGUUUUGAGAGCUUGAUUUUAUGGUGGGUUUUGGAUUUAGUUUCCUUUUUCCUUUU | 0.514 |
| CAUUUGCUGAGGAUGGAGAGGCAGGGGAGGGAGGCGGGAGGCCGUCACUGGAGUGGCGUCUGCAGCAGCUGCUGCCCCAGCACCCGCUCAGCCUGUCCUGGCUGCUCACC | 0.397 |
| GUUUUUGUUUUUGUUUUUUUCUGGAUAAGGAAAACAGAGAACAACAAUAGAUACCGCUGAAGGAUCCUUGGAGUCCAUCAUCCAUAUCUCAGUGGUCAUUCUUCUGCCUU | 0.292 |
| CUGGUUUAACUCACAGCAACUUUUAAUUGGUCUAAGAUGAGGGCAUCCCUCAGUUGGUCCAUUGUAAUGAUGAUCGUCCUCAUCUGAGUGACAGUUACUGCCCAGGGUCC | 0.464 |
| UAGUAAGAACUAAGCAGGGGGCCACAUGCUCUCAAUGGAGACAAUAAAGUGUUGUCUUUUUCUUAUUUUUAUGUAGGUAUAUUUCCUAUAUGGGCAUUUUUGGGUAGAUU | 0.777 |
| AGAGGGUCAGACGCCUGAGGAACCCUUACAGUAGGAGCCCAGCUCUGAAACCAGUGUUAGGGAAGGGCCUGCCACAGCCUCCCCUGCCAGGGCAGGGCCCCAGGCAUUGC | 0.804 |
| UGUUAGCUGCAUAAGCUCAAUAAAAAGUUGGUCUGGGCAUUGCAUCCCCUCUGACAGACCGAUAGCUGCAUCAGGCUGUUGGGUGGAAUGGGAGGCAAGGGAAUAGGAAA | 0.422 |
| GGUGGACCCCCAUGAGUCAAUGGAGGGCAGACGGCUCUCCCCCUUAAAGCUGUUCCCUGGGGGAUGGCUUGGUAGUGGACUUUCUGGGGUUUGCCUGUUACGCCAGACUC | 0.27 |
| GGGCUGGCUCUGAAGCCAAGCCUCUUCUUACUUCACCCGGCUGGGCUCCUCAUUUUUACGGGUAACAGUGAGGCUGGGAAGGGGAACACAGACCAGGAAGCUCGGUGAGU | 0.325 |
| UGUGUUAACACAGAACUGAUGUUUAGCAUUCUGCCGCUUUCGUAUUUAUGUAACAAUUCCUUAAAGCCAUUCAAAUGGCUAACUAUUUAAUUUCUUUAGGACAGUUGUAA | 0.463 |
| GACUGUGUGGUUCCAUCUCUGGCCAGGCCACUUCCAGCCAGCAAGGACACCAGAGGCUGCCUUAGCAGAUGGGUCACACUGCUUCCAGCCUUAGCCAGCCAGUGACAAGU | 0.297 |
| CACUGGCGUGUGGCACUCUGGCUACAAACUGCUGACCCAGGGGUUCCAGACACUGCUCACUCACUGGGUGCUGUGCUGUGGCUAGUGUAUGGCUUGUACCCAGAUGGCGC | 0.335 |

Series 4
Target: Interferon regulatory factor 3, full length, phosphomimetic (IRF3, Homo sapiens, UniProt Q14653, residues 1-427, S386D/S396D/S398D/S402D/T404D/S405D)
Method: protein-binding microarray
Molecule type: double-stranded DNA, one strand shown
Sample: in vitro
Tested at: 2540 nM top
Setting: 60-bp whole probe
Together with: salmon DNA 0.4 mg/ml
Baseline: random background probes
Reading: higher = stronger binding
Constant ends, left off below: GCCTAGCAC … GTCTTGATTCGCTTGACGCTGCTG
Target sequence (chain): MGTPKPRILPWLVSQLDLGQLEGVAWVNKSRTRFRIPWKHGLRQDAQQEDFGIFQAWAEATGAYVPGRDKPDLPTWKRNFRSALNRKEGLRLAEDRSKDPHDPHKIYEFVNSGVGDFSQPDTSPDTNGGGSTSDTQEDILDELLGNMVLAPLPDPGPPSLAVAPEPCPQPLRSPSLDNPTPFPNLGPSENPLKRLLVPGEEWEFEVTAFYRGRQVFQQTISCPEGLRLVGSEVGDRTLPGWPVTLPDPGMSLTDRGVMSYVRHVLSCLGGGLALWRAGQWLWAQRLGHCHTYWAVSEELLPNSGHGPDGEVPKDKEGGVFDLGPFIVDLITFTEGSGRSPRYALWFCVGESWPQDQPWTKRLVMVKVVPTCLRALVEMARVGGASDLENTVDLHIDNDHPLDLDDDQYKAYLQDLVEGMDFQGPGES
| Oligonucleotide | fitted relative affinity [z-score] |
| --- | --- |
| GACGATTTCTGGTATCGAGACGTGCTA | 1.04 |
| GACGGTCTCGGTATCGTGACGTGCTAG | 1.35 |
| TTAGGTATCCTTCACCTTTAGTGCTAG | 1.8 |
| GACGGTATCCTTCGCCTGACGTGCTAG | 1.28 |
| TTAGTTTTCAGTCTCGATTAGTGCTAG | 3.96 |
| GACGGCCTGGGGTATCGGGACGTGCTA | -0.901 |
| GACAATATCGGGACTGGAGACGTGCTA | 0.144 |
| TTAGAACAGGGGACTGGATTAGTGCTA | -0.508 |
| TTAGGTATCAACTATCGGTTAGTGCTA | 0.667 |
| GACGGTTTCGGACTCGGGACGTGCTAG | 6.28 |
| GACGATTTCAATTTCGAGACGTGCTAG | 2.63 |
| TTAGATTTCAGTAACGATTAGTGCTAG | 0.643 |
| TTAAGTTTCGGGTATCGGTTAGTGCTA | 4.71 |
| TTCGATTTCAGTTCCGATTAGTGCTAG | 3.91 |
| TTAGATTTCGGGACTGGATTGGTGCTA | 1.24 |
| TTAGATATCGGGACAGGATTAGTGCTA | 0.113 |
